Experimental data of several laboratories.
Protocols differ between the studies behind these lines. Several values in a cell are separate wells, animals, samples, runs or records. ± marks the error that the study gave.

CC1(C)C(=O)N(c2ccc(C#N)c(C(F)(F)F)c2)C(=S)N1c1ccc(C(N)=O)c(F)c1
AUC (male human, plasma; oral, 80 mg, single dose, fasted): 151 µg·h/mL

CC[C@H](C)[C@H](NC(=O)CNC(=O)[C@H](Cc1c[nH]cn1)NC(=O)[C@H](CC(C)C)NC(=O)CNC(=O)[C@H](CC(C)C)NC(=O)[C@H](CCCCN)NC(=O)[C@H](Cc1ccccc1)NC(=O)[C@H](CC(C)C)NC(=O)[C@H](CCCCN)NC(=O)CNC(=O)[C@H](Cc1c[nH]c2ccccc12)NC(=O)[C@H](Cc1ccccc1)NC(=O)CN)C(=O)NCC(=O)N[C@@H](CC(C)C)C(=O)N[C@@H](CC(C)C)C(=O)N[C@@H](Cc1c[nH]cn1)C(=O)N[C@@H](CC(C)C)C(=O)N[C@@H](Cc1c[nH]cn1)C(=O)N[C@@H](CC(C)C)C(N)=O
chronic toxic concentration (zebrafish embryos 28 hpf, E3 medium; 24 h): 1 µM

Cc1sc2c(c1C)C(c1ccc(-c3cccc(NC(=O)c4cnn5cccnc45)c3)cc1)=N[C@@H](CC(N)=O)c1nnc(C)n1-2
tolerability (body weight change; NOD/SCID mice with MV4-11 xenografts; 5 and 10 mg/kg): not toxic

CC[C@H](C)[C@H](NC(=O)[C@H](C)NC(=O)[C@H](CCCCN)NC(=O)[C@H](CC(C)C)NC(=O)[C@@H](N)Cc1ccccc1)C(=O)N[C@@H](CCCCN)C(=O)N[C@@H](CCCCN)C(=O)N[C@@H](Cc1ccccc1)C(=O)NCC(=O)N[C@@H](CCCCN)C(=O)N[C@@H](CCC(=O)O)C(=O)N[C@@H](Cc1ccccc1)C(=O)N[C@@H](CCCCN)C(=O)N[C@@H](CCCCN)C(=O)N[C@H](C(=O)NCC(=O)N[C@@H](C)C(=O)N[C@@H](CCCCN)C(=O)N[C@@H](CC(C)C)C(=O)N[C@@H](CCCCN)C(=O)O)[C@@H](C)CC
hemolysis (human red blood cells; 4 mg/L, 1 h, mean of replicates): 0.429%

COc1cnc2cccc(N3CCc4c(cc(Cn5ccnc5)cc4-c4cn(C)nc4C(F)(F)F)C3=O)c2c1
body weight (BALB/c nude mice, MV4-11 xenograft; intraperitoneal, 75 mg/kg, day 21): 22.5 g and 21.5 g and 25.2 g and 22.1 g and 23.6 g

O=C1NC2(CC2)COc2ncc(F)cc2[C@H]2COCCN2c2ccn3ncc1c3n2
organ-to-brain weight ratio (Sprague-Dawley rat, male, kidneys; oral, 10 mg/kg/day, 4 weeks dosing, end of recovery): 164 ± 17.6%

CN[C@H](CC(C)C)C(=O)N[C@H]1C(=O)N[C@@H](CC(N)=O)C(=O)N[C@H]2CN[C@H]3C(=O)N[C@H](C(=O)N[C@H](C(=O)NCCCNC(=N)N)c4cc(O)cc(O)c4-c4cc3ccc4O)[C@H](O)c3ccc(c(Cl)c3)Oc3cc2cc(c3O[C@@H]2O[C@H](CO)[C@@H](O)[C@H](O)[C@H]2O[C@H]2C[C@](C)(NCc3ccc(-c4ccc(Cl)cc4)cc3)[C@H](O)[C@H](C)O2)Oc2ccc(cc2Cl)[C@H]1O
MTD (mouse): ≥ 50 mg/kg

N#[11C]c1ccc(-c2csc(NN=C3CCCC3)n2)cc1
radioactivity uptake (dynamic PET/CT; C57BL/6 mouse, kidneys; intravenous, dose not given, 60 min): 0.6 SUV

CCCCCCCCCCCCCC(=O)N[C@H](CCN)C(=O)N[C@@H]1C(=O)N[C@@H](CCN)C(=O)N[C@@H](CC(C)C)C(=O)N[C@@H](CCN)C(=O)N[C@H](Cc2ccccc2)C(=O)N[C@@H](CC(C)C)C(=O)N[C@@H](CCN)C(=O)N[C@H](CCN)C(=O)N[C@@H](C(C)C)C(=O)N[C@@H](CC(=O)O)C(=O)O[C@@H]1C
AUC extrapolated percentage (rat; subcutaneous, 10 mg/kg): 1.49 ± 0.18%

CCCCCCCCCCCCCCCC(=O)N[C@@H](CCC(=O)NCCOCCOCCC(=O)NCCOCCOCCC(=O)NCCCC[C@H](NC(=O)[C@H](CC(=O)O)NC(=O)[C@H](CC(C)C)NC(=O)[C@H](Cc1ccc(O)cc1)NC(=O)[C@H](CCCCN)NC(=O)[C@H](CO)NC(=O)[C@H](Cc1ccc(O)cc1)NC(=O)[C@H](CC(=O)O)NC(=O)[C@H](CO)NC(=O)[C@@H](NC(=O)[C@H](Cc1ccccc1)NC(=O)[C@@H](NC(=O)CNC(=O)[C@H](CCC(N)=O)NC(=O)[C@@H](CO)NC(=O)[C@@H](N)Cc1c[nH]cn1)[C@@H](C)O)[C@@H](C)O)C(=O)N[C@@H](CCCNC(=N)N)C(=O)N[C@@H](CCCNC(=N)N)C(=O)N[C@@H](C)C(=O)N[C@@H](CCC(N)=O)C(=O)N[C@@H](CC(=O)O)C(=O)N[C@@H](Cc1ccccc1)C(=O)N[C@H](C(=O)N[C@@H](CCC(N)=O)C(=O)N[C@@H](Cc1c[nH]c2ccccc12)C(=O)N[C@@H](CC(C)C)C(=O)N[C@@H](CC(C)C)C(=O)N[C@@H](CC(N)=O)C(=O)N[C@H](C(=O)NCC(=O)NCC(=O)N1CCC[C@H]1C(=O)N[C@@H](CO)C(=O)N[C@@H](CO)C(=O)NCC(=O)N[C@@H](C)C(=O)N1CCC[C@H]1C(=O)N1CCC[C@H]1C(=O)N1CCC[C@H]1C(=O)N[C@@H](CO)C(N)=O)[C@@H](C)O)C(C)C)C(=O)O
total cholesterol (Sprague-Dawley rat, female; subcutaneous, 100 µg/kg once daily, 14 days): 0.72 ± 0.13 mmol/L

CC[C@H](C)[C@H](NC(=O)[C@H](CCCCN)NC(=O)CNC(=O)[C@H](CC(C)C)NC(=O)[C@H](Cc1ccccc1)NC(=O)[C@H](CCCCN)NC(=O)[C@H](CO)NC(=O)[C@H](Cc1ccccc1)NC(=O)[C@H](Cc1c[nH]c2ccccc12)NC(=O)[C@H](CCC(N)=O)NC(=O)[C@@H](NC(=O)[C@H](Cc1ccccc1)NC(=O)CCCCCNC(=O)CN1CCN(CC(=O)O)CCN(CC(=O)O)CCN(CC(=O)O)CC1)C(C)C)C(=O)N[C@@H](CCC(=O)O)C(=O)N1CCC[C@H]1C(=O)N[C@@H](CC(=O)O)C(=O)N[C@H](C(=O)N[C@@H](CO)C(=O)N[C@@H](CCC(N)=O)C(=O)N[C@H](C(=O)N[C@@H](CCC(N)=O)C(=O)N[C@@H](CC(=O)O)C(=O)N1CCC[C@H]1C(=O)N[C@@H](CC(N)=O)C(=O)N[C@@H](CC(=O)O)C(=O)N[C@@H](CCC(N)=O)C(=O)N[C@@H](Cc1ccc(O)cc1)C(=O)N[C@@H](CCC(=O)O)C(=O)N1CCC[C@H]1C(=O)N[C@@H](Cc1ccccc1)C(=O)O)C(C)C)C(C)C [copper-64 labelled]
tissue uptake (GZMB-/- mice, CT26 tumour-bearing, bone; 2 h, vehicle-treated): 0.48 ± 0.09 %ID/g

CSCC[C@H](NC(=O)CNC(=O)[C@H](CCCCN)NC(=O)[C@H](CC(C)C)NC(=O)[C@@H]1CCCN1C(=O)[C@H](CO)NC(=O)[C@H](Cc1c[nH]cn1)NC(=O)[C@H](Cc1c[nH]c2ccccc12)NC(=O)[C@H](CCCNC(=N)N)NC(=O)[C@H](CC(C)C)NC(=O)[C@H](CCCNC(=N)N)NC(=O)[C@H](Cc1c[nH]c2ccccc12)NC(=O)[C@H](CS)NC(=O)CCCCCNC(=O)CN1CCN(CC(=O)O)CCN(CC(=O)O)CCN(CC(=O)O)CC1)C(=O)O [copper-64 labelled]
tumour-to-blood ratio (BALB/c nude mouse, Huh-7 tumour, tumour and blood; intravenous, 1.85 MBq, 18 h, ex vivo biodistribution; reference: tumour over blood): 6.67

A few entries again:
CC[C@H](C)[C@H](NC(=O)[C@H](C)NC(=O)[C@H](CCCCN)NC(=O)[C@H](CC(C)C)NC(=O)[C@@H](N)Cc1ccccc1)C(=O)N[C@@H](CCCCN)C(=O)N[C@@H](CCCCN)C(=O)N[C@@H](Cc1ccccc1)C(=O)NCC(=O)N[C@@H](CCCCN)C(=O)N[C@@H](CCC(=O)O)C(=O)N[C@@H](Cc1ccccc1)C(=O)N[C@@H](CCCCN)C(=O)N[C@@H](CCCCN)C(=O)N[C@H](C(=O)NCC(=O)N[C@@H](C)C(=O)N[C@@H](CCCCN)C(=O)N[C@@H](CC(C)C)C(=O)N[C@@H](CCCCN)C(=O)O)[C@@H](C)CC
hemolysis (human red blood cells; 4 mg/L, 1 h, mean of replicates): 0.429%
